Published values pooled from the literature.
± marks the error that the study gave.
TEC: Tyrosine-protein kinase Tec (TEC, Homo sapiens, UniProt P42680)
Sequence of UniProt P42680 (whole entry, looked up): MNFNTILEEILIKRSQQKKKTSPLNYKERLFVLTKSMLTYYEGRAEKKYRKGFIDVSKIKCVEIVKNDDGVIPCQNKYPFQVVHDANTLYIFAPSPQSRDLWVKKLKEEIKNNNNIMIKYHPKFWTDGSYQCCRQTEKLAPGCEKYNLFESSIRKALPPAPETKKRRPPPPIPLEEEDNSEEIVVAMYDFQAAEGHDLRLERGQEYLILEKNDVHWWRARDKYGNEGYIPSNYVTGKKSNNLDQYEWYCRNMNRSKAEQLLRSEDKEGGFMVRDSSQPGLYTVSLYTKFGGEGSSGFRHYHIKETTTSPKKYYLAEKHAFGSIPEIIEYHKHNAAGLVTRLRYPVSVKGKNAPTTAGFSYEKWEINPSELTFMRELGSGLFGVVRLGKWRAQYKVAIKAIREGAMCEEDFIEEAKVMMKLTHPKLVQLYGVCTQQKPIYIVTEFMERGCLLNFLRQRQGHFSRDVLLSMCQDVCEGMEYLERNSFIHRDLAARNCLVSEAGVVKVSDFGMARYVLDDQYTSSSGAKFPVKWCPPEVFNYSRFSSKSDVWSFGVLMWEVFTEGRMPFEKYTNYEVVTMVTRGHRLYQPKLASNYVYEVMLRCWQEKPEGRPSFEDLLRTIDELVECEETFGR
PIK3CA E545K with p85 alpha: Phosphatidylinositol 4,5-bisphosphate 3-kinase catalytic subunit alpha isoform, with p85 alpha (PIK3CA, Homo sapiens, UniProt P42336, E545K)
Sequence of UniProt P42336 (whole entry, unmodified, looked up): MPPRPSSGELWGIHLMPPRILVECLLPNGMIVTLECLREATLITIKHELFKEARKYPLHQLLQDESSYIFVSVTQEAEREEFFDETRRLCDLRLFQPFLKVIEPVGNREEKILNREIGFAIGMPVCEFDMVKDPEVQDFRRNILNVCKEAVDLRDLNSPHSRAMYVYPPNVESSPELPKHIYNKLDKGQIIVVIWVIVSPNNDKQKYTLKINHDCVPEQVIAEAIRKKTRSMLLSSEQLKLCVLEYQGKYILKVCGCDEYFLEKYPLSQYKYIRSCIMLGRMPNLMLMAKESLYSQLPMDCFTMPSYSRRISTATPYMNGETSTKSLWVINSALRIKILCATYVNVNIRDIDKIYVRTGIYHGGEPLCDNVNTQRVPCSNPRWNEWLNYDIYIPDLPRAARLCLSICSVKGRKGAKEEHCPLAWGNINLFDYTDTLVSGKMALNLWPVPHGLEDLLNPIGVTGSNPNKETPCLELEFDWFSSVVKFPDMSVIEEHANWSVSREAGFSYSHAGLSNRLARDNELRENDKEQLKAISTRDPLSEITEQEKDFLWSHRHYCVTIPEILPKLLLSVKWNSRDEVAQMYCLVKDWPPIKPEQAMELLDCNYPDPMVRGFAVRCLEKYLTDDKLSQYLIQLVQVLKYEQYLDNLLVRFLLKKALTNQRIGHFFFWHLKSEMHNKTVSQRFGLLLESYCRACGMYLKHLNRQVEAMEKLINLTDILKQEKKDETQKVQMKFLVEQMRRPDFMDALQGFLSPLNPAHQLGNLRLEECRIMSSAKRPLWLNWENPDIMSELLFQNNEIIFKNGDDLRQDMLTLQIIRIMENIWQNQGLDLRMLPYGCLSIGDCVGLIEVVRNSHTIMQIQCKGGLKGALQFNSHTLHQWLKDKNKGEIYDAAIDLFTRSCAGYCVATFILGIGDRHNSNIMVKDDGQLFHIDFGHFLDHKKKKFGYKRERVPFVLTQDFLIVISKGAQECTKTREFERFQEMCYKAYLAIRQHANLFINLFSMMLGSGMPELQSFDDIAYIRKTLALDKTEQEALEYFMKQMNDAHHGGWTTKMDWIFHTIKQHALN
EPHA7: Ephrin type-A receptor 7 (EPHA7, Homo sapiens, UniProt Q15375)
Sequence of UniProt Q15375 (whole entry, looked up): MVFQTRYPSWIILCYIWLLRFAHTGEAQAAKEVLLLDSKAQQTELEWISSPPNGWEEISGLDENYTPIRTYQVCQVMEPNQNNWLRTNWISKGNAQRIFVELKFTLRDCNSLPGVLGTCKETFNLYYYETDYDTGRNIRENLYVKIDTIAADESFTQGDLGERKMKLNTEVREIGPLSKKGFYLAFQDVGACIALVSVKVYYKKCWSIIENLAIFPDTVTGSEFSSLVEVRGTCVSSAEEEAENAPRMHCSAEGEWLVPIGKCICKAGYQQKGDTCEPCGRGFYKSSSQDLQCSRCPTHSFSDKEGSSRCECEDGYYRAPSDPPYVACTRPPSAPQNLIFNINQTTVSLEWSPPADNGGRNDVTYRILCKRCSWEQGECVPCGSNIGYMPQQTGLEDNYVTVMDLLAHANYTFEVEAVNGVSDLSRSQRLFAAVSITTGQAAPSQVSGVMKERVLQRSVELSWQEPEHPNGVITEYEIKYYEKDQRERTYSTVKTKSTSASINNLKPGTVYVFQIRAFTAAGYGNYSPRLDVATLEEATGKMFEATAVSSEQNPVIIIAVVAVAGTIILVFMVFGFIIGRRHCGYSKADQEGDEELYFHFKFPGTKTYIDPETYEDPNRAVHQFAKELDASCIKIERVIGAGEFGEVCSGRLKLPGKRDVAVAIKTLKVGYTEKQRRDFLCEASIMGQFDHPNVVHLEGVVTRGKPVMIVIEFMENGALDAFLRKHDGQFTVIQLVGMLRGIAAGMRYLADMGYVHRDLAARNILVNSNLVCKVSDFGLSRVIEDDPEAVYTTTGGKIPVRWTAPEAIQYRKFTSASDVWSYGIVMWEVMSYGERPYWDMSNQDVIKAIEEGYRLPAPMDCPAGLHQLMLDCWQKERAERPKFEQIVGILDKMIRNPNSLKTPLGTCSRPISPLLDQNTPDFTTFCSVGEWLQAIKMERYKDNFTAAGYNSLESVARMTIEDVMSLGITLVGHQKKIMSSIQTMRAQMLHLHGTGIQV
Sequence of UniProt P16234 (whole entry, looked up): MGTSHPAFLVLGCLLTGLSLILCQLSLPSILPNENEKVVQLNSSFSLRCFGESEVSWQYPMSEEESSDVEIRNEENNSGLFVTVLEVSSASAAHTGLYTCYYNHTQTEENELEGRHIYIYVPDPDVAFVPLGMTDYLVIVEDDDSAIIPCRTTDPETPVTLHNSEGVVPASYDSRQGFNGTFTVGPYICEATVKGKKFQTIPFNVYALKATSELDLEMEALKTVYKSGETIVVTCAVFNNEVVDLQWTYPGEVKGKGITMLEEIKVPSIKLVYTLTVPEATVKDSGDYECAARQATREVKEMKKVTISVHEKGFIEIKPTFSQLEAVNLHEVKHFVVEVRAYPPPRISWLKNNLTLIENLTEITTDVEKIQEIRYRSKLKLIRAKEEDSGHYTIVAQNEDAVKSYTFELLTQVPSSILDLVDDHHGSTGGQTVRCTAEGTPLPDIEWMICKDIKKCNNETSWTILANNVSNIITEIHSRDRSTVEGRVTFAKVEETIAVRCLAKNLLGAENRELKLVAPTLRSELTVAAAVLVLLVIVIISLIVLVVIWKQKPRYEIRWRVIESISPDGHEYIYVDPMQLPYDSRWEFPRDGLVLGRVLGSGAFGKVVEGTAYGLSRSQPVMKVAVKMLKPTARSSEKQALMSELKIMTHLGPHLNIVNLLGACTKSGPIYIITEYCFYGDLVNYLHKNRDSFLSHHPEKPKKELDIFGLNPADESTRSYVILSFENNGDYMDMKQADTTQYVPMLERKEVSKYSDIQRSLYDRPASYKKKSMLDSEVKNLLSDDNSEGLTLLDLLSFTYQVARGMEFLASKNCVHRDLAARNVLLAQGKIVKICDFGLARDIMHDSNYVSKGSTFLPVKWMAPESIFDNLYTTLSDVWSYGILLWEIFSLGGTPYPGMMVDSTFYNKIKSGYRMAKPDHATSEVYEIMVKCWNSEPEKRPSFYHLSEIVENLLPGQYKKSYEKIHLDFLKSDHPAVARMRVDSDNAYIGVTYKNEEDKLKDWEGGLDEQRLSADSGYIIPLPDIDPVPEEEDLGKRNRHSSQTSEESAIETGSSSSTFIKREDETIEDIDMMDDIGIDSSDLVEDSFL
Sequence of UniProt P05164 (whole entry, looked up): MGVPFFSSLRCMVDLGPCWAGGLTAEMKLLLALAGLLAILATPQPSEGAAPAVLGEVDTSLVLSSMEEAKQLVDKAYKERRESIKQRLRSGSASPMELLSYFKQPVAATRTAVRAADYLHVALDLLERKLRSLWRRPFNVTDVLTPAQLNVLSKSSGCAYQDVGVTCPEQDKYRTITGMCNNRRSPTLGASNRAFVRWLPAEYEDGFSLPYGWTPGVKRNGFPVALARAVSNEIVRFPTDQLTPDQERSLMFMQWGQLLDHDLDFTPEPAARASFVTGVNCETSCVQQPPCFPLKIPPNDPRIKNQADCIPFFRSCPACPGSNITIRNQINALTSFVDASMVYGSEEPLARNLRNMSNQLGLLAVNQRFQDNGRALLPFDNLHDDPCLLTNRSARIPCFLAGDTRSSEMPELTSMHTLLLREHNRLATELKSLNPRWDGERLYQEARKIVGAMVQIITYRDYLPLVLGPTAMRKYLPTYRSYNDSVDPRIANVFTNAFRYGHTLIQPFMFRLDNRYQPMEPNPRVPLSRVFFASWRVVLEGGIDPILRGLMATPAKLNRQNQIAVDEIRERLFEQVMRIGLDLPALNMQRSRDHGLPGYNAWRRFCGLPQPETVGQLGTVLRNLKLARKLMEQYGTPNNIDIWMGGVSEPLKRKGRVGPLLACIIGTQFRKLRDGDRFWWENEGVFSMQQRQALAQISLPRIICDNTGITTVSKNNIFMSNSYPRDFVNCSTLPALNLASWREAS
Sequence of UniProt Q6SA08 (whole entry, looked up): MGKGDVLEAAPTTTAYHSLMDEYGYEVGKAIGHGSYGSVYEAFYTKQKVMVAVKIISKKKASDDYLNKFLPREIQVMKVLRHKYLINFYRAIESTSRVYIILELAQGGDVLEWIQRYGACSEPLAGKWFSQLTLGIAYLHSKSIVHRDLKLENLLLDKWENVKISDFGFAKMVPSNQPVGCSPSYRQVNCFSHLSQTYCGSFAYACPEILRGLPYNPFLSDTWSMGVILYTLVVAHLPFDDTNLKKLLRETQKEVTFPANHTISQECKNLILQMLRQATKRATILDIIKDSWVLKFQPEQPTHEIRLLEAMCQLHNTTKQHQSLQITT

| SMILES | target | test | test system | conditions | scale | remaining activity |
| --- | --- | --- | --- | --- | --- | --- |
| CC(C)OCCn1c(=S)[nH]c(=O)c2[nH]ccc21 | Myeloperoxidase (MPO, Homo sapiens, UniProt P05164) | LDL lipid peroxidation, inhibitor, cholesteryl ester hydroperoxide |  | 3.333 µM |  | 16.1% |
| COc1cc(F)ccc1-c1ncnc(Nc2cccc(C[S@](C)(=N)=O)c2)n1 | Platelet-derived growth factor receptor alpha (PDGFRA, Homo sapiens, UniProt P16234) | kinase activity |  | 10 µM, together with: 10 µM ATP |  | 35% |
| c1cnc2ccc(Nc3nc(NC4CC4)c4nc[nH]c4n3)cc2c1 | Phosphatidylinositol 3-kinase catalytic subunit type 3 (PIK3C3, Homo sapiens, UniProt Q8NEB9) | kinase activity, inhibitor, SelectScreen kinase profiling |  | 1 µM | reference: control | 69% |
| CN(C(=O)n1cnc(-c2ccc[n+]([O-])c2)c1)C1CCCCC1 | Fatty-acid amide hydrolase 1 (Faah, Rattus norvegicus, UniProt P97612) |  | rat, brain | 0.1 mg/kg, 6 days | reference: control | 73% |
| COc1ccc(F)cc1C(=O)NCc1ccc(-c2nn([C@@H](C)C(F)(F)F)c(N)c2C(N)=O)cc1 | TEC | kinase activity, inhibitor, HotSpot radiometric |  | 100 nM, together with: ATP 10 µM |  | 97.2% |
| CC(C)CC(C#N)NS(=O)(=O)c1cccc(Cl)c1O (stereo not shown) | malate dehydrogenase | enzyme activity, inhibitor |  | 200 µM, pH 7.0, 1% DMSO, aggregation counter-screen |  | 72% |
| O=C(NC1CCC1)c1ccc2nc(-c3cccc(NS(=O)(=O)NCCN4CCCCC4)c3)cn2c1 | Phosphatidylinositol 4,5-bisphosphate 3-kinase catalytic subunit alpha isoform (PIK3CA, Homo sapiens, UniProt P42336, M1043I) | enzyme activity |  | 10 µM |  | 100% |
| CNC(=O)COc1ccc(NS(=O)(=O)c2cc(Cl)cc(Cl)c2O)cc1 | malate dehydrogenase | enzyme activity, inhibitor |  | 200 µM, pH 7.0, 1% DMSO, aggregation counter-screen |  | 98% |
| CCCOc1ccc(OC)c(F)c1C(=O)c1ccc(C(=O)N[C@@H]2CNC[C@H]2NC(=O)c2ccc3[nH]ncc3c2)cc1 | Hepatocyte growth factor receptor (MET, Homo sapiens, UniProt P08581, Y1230C) | enzyme activity |  | 10 µM |  | 38% |
| COc1cc(-c2cncc3c2CN(C)Cc2cc(N4CCNCC4)ccc2-3)cc(OC)c1OC | PIK3CA E545K with p85 alpha | kinase activity |  | 1 µM, p110a(E545K)/p85a)(h human, together with: ATP 10 µM | reference: DMSO | 108% |
| CC#CC(=O)N1CCC[C@H]1c1nc(-c2ccc(C(=O)Nc3ccccn3)cc2)c2c(N)nccn12 | TEC | kinase activity, inhibitor, HotSpot radiometric |  | 100 nM, together with: ATP 10 µM |  | 43.5 ± 0.9% |
| COc1cc(Nc2ncc3c(n2)-c2ccc(Cl)cc2C(c2c(F)cccc2OC)=NC3)ccc1C(=O)O | SRC | kinase activity |  | 1 µM |  | 26% |
| CC1C(C)[C@H](C(=O)NCCc2nnnn2-c2ccccc2)[C@@H]1C(=O)[O-].[Na+] (stereo partly shown) | malate dehydrogenase | enzyme activity, inhibitor |  | 200 µM, pH 7.0, 1% DMSO, aggregation counter-screen |  | 95% |
| C[C@H]1[C@H](OC(=O)CCC(=O)O)O[C@@H]2O[C@@]3(C)CC[C@H]4[C@H](C)CC[C@@H]1[C@@]24OO3 | Non-structural polyprotein pORF1, RNA-dependent RNA polymerase (Hepatitis E virus genotype 1, UniProt P33424) | polymerase activity, inhibitor, colorimetric |  | 78 µM | reference: untreated | 59.5% |
| Cn1ncc(S(=O)(=O)NC(c2cccc(Cl)c2)c2cccc(Cl)c2)c1C(=O)O | malate dehydrogenase | enzyme activity, inhibitor |  | 200 µM, pH 7.0, 1% DMSO, aggregation counter-screen |  | 95% |
| Cc1cc(Nc2cc(N3CCN(C)CC3)nc(Sc3ccc(NC(=O)C4CC4)cc3)n2)[nH]n1 | SRSF protein kinase 1 (SRPK1, Homo sapiens, UniProt Q96SB4) | kinase activity, KinaseProfiler |  | 0.03 µM, species human | reference: control | 98% |

| SMILES | target | test | test system | conditions | scale | remaining activity |
| --- | --- | --- | --- | --- | --- | --- |
| Nc1ncc2c(n1)-c1c([nH]c3ccc(-c4ccc(F)cc4)cc13)CCC2 | Testis-specific serine/threonine-protein kinase 4 (TSSK4, Homo sapiens, UniProt Q6SA08) | kinase activity, inhibitor, radiometric |  | 1 µM, together with: ATP at Km |  | 56% |
| C=CC[C@@H]1c2ccc(OC)c(OC)c2CN2CCc3cc4c(cc3[C@H]12)OCO4 | P2X purinoceptor 7 (P2rx7, Mus musculus, UniProt Q9Z1M0, A312V) | ATP-evoked current, inhibitor, whole-cell patch clamp |  | 3 µM, A312V variant |  | 45.4% |
| O=C(O)c1ccc(Nc2ncc3c(n2)-c2ccc(Cl)cc2C(c2c(F)cccc2F)=NC3)cc1 | human EGFR T790M/L858R | inhibitor, biochemical kinase |  | 1 µM |  | 51% |
| Cc1cccc(C)c1C(=O)OCC(=O)[C@H](CCCCN)NC(=O)[C@H](CCCNC(=N)N)NC(=O)OCc1ccccc1 | Dipeptidyl peptidase 1 (Ctsc, Mus musculus, UniProt P97821) | inhibitor |  | 1 µM, together with: AMC fluorogenic substrate | reference: untreated | 100% |
| C=CC(=O)N1CCC([C@@H]2CCNc3c(C(N)=O)c(-c4ccc(Oc5ccccc5)cc4)nn32)CC1 | Tyrosine-protein kinase Lyn, isoform B (LYN, Homo sapiens, UniProt P07948) | kinase activity, inhibitor, HotSpot radiometric |  | 100 nM, together with: ATP 10 µM |  | 90.1 ± 3.6% |
| O=S(=O)(NCC1Cc2cc(Br)ccc2O1)c1cccc(Cl)c1O (stereo not shown) | malate dehydrogenase | enzyme activity, inhibitor |  | 200 µM, pH 7.0, 1% DMSO, aggregation counter-screen |  | 102% |
| CNc1ncc2c(/C=C/C(=O)N3CCC(OC)CC3)nn(Cc3cccc(C(F)(F)F)c3)c2n1 | EPHA7 | kinase activity, inhibitor |  | 1 µM | reference: untreated control | 104% |
| O=S(=O)(NCCCOc1ccccc1F)c1cc(Cl)cc(Cl)c1O | malate dehydrogenase | enzyme activity, inhibitor |  | 200 µM, pH 7.0, 1% DMSO, aggregation counter-screen |  | 95% |
| NC/C(=C\F)COc1cccc(Cn2c(=S)[nH]c(=O)c3[nH]cnc32)c1 | Peroxidasin homolog (PXDN, Homo sapiens, UniProt Q92626) | Amplex UltraRed |  | 10 µM | reference: control | 42.3% |
| C=CC(=O)N1CCC[C@@H](n2nc(-c3ccc(Oc4ccccc4)cc3)c3c(N)ncnc32)C1 | EPHA7 |  |  | 1 µM |  | 94.9% |
| O=S(=O)(NC1(c2ccc3c(c2)OCO3)CC1)c1cccc(Cl)c1O | malate dehydrogenase | enzyme activity, inhibitor |  | 200 µM, pH 7.0, 1% DMSO, aggregation counter-screen |  | 125% |
| Cc1ccc(NC(=O)c2ccc(C)c(C(F)(F)F)c2)cc1C#Cc1nn(C2CCC(O)CC2)c2ncnc(N)c12 (stereo not shown) | PIK3CA E545K with p85 alpha | enzyme activity, inhibitor |  | 10 µM, p110a(E545K)/p85a)(h human, together with: ATP 10 µM |  | 92% |
| O=C(O)C1Cc2nnc(CNS(=O)(=O)c3cccc(Cl)c3O)n2C1 (stereo not shown) | malate dehydrogenase | enzyme activity, inhibitor |  | 200 µM, pH 7.0, 1% DMSO, aggregation counter-screen |  | 94% |
| Cc1cc(NC(=O)c2cccc(NC(=O)/C=C/CN(C)C)c2)ccc1Nc1nccc(-c2cccnc2)n1 | Mitogen-activated protein kinase 8 (MAPK8, Homo sapiens, UniProt P45983) | enzyme activity, inhibitor |  | 8.36e-05 µM, 18 h, unit not given, together with: GSH 10 mM pre-incubation | reference: vehicle | 1.07 |
| O=C(O)c1cc(N=Cc2ccccc2O)cc(C(=O)O)c1 | Lysine-specific demethylase 4A (KDM4A, Homo sapiens, UniProt O75164) |  |  | concentration not given |  | 93% |

Excerpt of the above:
| SMILES | target | test | test system | conditions | scale | remaining activity |
| --- | --- | --- | --- | --- | --- | --- |
| C=CC(=O)N1CCC([C@@H]2CCNc3c(C(N)=O)c(-c4ccc(Oc5ccccc5)cc4)nn32)CC1 | Tyrosine-protein kinase Lyn, isoform B (LYN, Homo sapiens, UniProt P07948) | kinase activity, inhibitor, HotSpot radiometric |  | 100 nM, together with: ATP 10 µM |  | 90.1 ± 3.6% |
| C[C@H]1[C@H](OC(=O)CCC(=O)O)O[C@@H]2O[C@@]3(C)CC[C@H]4[C@H](C)CC[C@@H]1[C@@]24OO3 | Non-structural polyprotein pORF1, RNA-dependent RNA polymerase (Hepatitis E virus genotype 1, UniProt P33424) | polymerase activity, inhibitor, colorimetric |  | 78 µM | reference: untreated | 59.5% |
| COc1cc(F)ccc1-c1ncnc(Nc2cccc(C[S@](C)(=N)=O)c2)n1 | Platelet-derived growth factor receptor alpha (PDGFRA, Homo sapiens, UniProt P16234) | kinase activity |  | 10 µM, together with: 10 µM ATP |  | 35% |
| Nc1ncc2c(n1)-c1c([nH]c3ccc(-c4ccc(F)cc4)cc13)CCC2 | Testis-specific serine/threonine-protein kinase 4 (TSSK4, Homo sapiens, UniProt Q6SA08) | kinase activity, inhibitor, radiometric |  | 1 µM, together with: ATP at Km |  | 56% |
